Experimental data of several laboratories.
Numbered parts are unrelated; each lists some results of a single study. Substitutions count along the parent as printed.
Sequence of UniProt Q9Y3S1 (whole entry, looked up): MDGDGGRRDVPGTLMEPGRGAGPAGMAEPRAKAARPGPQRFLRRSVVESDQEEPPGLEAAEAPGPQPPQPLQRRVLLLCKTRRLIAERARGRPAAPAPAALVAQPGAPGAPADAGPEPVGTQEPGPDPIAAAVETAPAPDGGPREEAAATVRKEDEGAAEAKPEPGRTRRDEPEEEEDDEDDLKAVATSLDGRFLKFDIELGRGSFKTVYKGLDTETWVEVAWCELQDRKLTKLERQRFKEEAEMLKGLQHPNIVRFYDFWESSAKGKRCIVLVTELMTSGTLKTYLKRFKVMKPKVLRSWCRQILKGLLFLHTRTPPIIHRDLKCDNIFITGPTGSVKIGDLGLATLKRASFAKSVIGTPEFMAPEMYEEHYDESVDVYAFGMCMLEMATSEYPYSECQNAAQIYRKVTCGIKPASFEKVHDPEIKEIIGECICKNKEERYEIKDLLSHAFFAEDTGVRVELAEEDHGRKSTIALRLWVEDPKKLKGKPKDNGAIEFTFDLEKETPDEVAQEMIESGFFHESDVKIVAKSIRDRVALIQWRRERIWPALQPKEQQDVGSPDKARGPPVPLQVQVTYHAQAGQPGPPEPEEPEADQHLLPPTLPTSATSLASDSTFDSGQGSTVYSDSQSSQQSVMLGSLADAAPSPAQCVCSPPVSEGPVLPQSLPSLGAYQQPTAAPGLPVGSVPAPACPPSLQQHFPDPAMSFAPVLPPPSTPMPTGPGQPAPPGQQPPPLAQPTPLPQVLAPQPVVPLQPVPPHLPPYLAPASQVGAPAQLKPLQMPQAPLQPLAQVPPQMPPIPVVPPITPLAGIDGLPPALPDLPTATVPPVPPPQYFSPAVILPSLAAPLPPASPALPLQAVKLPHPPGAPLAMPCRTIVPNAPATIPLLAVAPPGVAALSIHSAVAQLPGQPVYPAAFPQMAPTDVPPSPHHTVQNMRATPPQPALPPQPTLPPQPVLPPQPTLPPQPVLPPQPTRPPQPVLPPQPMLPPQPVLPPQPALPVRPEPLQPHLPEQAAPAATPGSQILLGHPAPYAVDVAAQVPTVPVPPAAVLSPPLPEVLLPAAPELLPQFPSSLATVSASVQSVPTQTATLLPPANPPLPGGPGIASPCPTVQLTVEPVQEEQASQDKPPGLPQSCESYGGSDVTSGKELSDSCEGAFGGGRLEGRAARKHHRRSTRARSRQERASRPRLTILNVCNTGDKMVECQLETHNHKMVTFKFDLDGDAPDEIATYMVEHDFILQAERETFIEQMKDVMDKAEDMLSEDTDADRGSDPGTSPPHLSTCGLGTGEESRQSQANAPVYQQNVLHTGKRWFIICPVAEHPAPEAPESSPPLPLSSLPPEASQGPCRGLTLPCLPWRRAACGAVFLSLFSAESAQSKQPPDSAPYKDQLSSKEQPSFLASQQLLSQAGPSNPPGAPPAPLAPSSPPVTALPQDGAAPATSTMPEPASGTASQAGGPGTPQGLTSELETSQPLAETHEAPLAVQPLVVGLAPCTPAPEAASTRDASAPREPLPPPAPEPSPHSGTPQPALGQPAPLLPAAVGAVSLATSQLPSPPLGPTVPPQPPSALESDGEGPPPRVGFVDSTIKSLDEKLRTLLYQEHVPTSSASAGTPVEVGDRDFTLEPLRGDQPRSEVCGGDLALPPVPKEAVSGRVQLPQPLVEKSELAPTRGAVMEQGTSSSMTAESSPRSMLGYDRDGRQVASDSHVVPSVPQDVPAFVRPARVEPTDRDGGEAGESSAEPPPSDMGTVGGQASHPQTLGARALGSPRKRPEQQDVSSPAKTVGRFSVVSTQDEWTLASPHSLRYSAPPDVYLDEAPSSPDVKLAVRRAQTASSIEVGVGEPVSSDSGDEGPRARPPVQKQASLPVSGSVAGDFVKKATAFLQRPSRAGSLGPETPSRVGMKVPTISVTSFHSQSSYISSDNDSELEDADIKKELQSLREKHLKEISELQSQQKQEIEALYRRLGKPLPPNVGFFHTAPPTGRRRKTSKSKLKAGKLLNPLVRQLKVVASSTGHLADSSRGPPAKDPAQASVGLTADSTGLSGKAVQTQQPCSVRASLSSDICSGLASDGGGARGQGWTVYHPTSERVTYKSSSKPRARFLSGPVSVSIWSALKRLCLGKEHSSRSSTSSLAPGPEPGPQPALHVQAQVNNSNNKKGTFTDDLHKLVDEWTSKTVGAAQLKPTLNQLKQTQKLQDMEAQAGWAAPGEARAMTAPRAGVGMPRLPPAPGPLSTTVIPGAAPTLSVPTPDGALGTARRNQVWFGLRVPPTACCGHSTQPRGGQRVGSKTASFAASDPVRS
Sequence of UniProt Q9Y2U5 (whole entry, looked up): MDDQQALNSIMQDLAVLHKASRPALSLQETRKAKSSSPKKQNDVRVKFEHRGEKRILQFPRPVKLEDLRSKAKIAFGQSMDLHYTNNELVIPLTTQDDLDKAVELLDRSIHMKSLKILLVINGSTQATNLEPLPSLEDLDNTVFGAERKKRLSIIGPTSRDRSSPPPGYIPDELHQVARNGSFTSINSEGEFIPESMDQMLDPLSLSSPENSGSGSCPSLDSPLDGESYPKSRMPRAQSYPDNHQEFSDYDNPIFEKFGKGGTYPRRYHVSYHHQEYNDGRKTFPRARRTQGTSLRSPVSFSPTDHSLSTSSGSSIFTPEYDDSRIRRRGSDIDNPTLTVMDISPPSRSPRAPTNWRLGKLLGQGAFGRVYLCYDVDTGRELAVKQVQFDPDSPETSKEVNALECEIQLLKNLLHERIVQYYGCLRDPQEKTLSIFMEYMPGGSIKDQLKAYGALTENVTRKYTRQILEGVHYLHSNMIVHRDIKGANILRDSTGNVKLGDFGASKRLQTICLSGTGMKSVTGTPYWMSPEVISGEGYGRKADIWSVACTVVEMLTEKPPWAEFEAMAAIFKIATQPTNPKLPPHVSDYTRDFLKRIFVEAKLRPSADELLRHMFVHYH
Sequence of UniProt P80192 (whole entry, looked up): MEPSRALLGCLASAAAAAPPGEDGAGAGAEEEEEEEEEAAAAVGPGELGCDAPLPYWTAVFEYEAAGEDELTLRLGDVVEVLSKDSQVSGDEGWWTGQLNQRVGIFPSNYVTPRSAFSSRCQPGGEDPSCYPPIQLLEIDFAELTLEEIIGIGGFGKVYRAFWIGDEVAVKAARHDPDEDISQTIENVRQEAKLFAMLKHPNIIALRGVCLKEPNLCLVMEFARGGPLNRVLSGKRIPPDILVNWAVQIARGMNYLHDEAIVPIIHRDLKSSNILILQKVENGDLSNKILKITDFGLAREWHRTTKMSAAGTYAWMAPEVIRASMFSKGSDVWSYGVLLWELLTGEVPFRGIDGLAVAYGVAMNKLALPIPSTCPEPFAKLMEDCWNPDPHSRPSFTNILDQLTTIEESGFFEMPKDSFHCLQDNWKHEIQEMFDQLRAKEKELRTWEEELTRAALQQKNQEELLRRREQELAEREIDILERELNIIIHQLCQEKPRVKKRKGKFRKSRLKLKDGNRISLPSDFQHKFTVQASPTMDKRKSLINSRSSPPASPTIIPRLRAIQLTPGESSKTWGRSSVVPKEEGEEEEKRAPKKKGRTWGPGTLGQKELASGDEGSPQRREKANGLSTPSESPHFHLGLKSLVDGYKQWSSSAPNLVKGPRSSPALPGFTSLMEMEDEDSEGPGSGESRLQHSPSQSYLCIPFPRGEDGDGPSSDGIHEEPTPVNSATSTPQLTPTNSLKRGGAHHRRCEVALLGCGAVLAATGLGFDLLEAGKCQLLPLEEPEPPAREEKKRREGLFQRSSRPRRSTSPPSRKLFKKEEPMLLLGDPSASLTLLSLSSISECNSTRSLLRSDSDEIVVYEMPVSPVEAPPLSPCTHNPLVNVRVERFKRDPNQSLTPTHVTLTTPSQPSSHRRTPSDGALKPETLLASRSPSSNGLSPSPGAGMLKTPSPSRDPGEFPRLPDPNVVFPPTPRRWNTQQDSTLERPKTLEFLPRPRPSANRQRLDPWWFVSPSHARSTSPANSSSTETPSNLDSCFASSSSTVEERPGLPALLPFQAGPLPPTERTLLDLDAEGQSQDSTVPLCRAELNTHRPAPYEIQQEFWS
Sequence of UniProt P11802 (whole entry, looked up): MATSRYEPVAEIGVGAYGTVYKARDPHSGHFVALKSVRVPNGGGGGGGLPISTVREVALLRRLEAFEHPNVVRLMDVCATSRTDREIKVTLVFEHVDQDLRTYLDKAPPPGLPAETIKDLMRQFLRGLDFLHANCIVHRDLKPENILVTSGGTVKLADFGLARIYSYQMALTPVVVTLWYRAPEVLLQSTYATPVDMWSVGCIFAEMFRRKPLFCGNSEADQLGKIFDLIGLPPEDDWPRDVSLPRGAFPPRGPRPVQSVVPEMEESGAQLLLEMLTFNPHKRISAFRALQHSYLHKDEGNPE

Block 1
Target: Protein kinase C alpha type (PRKCA, Homo sapiens, UniProt P17252)
Read-out: enzyme activity
Mode: inhibitor
Concentration: 0.5 µM
Reference: control
For `O=c1c2ccccc2[nH]c(=S)n1CCN1CCC(=C(c2ccc(F)cc2)c2ccc(F)cc2)CC1`, the remaining activity was 73.1%.
With `N#CC(C#N)=C(N)/C(C#N)=C/c1ccc(O)cc1` the remaining activity was 97.4%.
With `Cc1ccc(Nc2nccc(N(C)c3ccc4c(C)n(C)nc4c3)n2)cc1S(N)(=O)=O` the remaining activity was 94.4%.
For `COc1ccc(CNC(=O)Nc2ncc([N+](=O)[O-])s2)cc1`, the remaining activity was 61.9%.
For `O=C(O)c1ccc2c3c1cccc3c(=O)n1c3ccccc3nc21`, the remaining activity was 101%.
For `O=C1NC(=O)C(c2cn(CCCn3ccnc3)c3ccccc23)=C1Nc1ccccc1`, the remaining activity was 32%.
For `Nc1ncnc2n[nH]c(Nc3ccc(F)cc3)c12`, the remaining activity was 98%.
The remaining activity of `O=C(Nc1cccc(Nc2cc(Nc3cccc(C(F)(F)F)c3)ncn2)c1)C1CC1` is reported as 101%.
`Nc1ccc2ncnc(NCCc3ccc(Oc4ccccc4)cc3)c2c1` has a remaining activity of 103%.
`COc1cc2ncnc(Nc3ccc(F)c(Cl)c3)c2cc1OCCCN1CCOCC1` gave a remaining activity of 93.6%.
With `Cc1nc(-c2ccccc2)c(-c2ccncc2)o1` the remaining activity was 98.3%.
With `OCC(O)CCON=C1C(c2c(O)[nH]c3ccccc23)=Nc2ccccc21` (stereo not shown) the remaining activity was 101%.
`Cc1ccc(NC(=O)c2ccc(CN3CCN(C)CC3)cc2)cc1Nc1nc(-c2cccnc2)cs1` gave a remaining activity of 110%.

Block 2
Target: Prothrombin, mature alpha-thrombin (F2, Homo sapiens, UniProt P00734)
Method: aptamer microarray, sandwich
Form: DNA with 2'F-ANA
Matrix: in vitro
Concentration: 200 nM
Notes: whole 15-mer aptamer, many near background
Together with: Cy3 exosite-II aptamer, 400 nM
Reading: higher = stronger binding
Sequence: GGTTGGTGTGGTTGG
Under “mean fluorescence intensity”, `2'F-ANA at 1 2 5 9 10 11` is recorded as 49.5 a.u.
`2'F-ANA at 2 3 4 5 6 7 8 11 12 15` — result for “mean fluorescence intensity”: 139 a.u.
`2'F-ANA at 3 4 5 6 7 11 12 14 15`: “mean fluorescence intensity” 56.1 a.u.
Under “mean fluorescence intensity”, `2'F-ANA at 3 6 9 13` is recorded as 704 a.u.
For `2'F-ANA at 3 5 6 10`, “mean fluorescence intensity” read 65.9 a.u.
Under “mean fluorescence intensity”, `2'F-ANA at 4 8 9 10 11` is recorded as 74.1 a.u.
`2'F-ANA at 1 2 3 4 5 7 8 9 12 13 15` — result for “mean fluorescence intensity”: 77.1 a.u.
`2'F-ANA at 2 3 5 9 12 14` — result for “mean fluorescence intensity”: 59.6 a.u.

Block 3
Compound: CSc1cccnc1N1CCN(Cc2nc3ccccc3[nH]2)CC1
Read-out: cell-free assay
Method: competition with immobilised ligand
Concentration: 1 µM
For MAP3K9 (Homo sapiens, UniProt P80192): remaining binding read 100%.
It gave 100% for remaining binding (MAST1 (Homo sapiens, UniProt Q9Y2H9)).
For PRKCH (Homo sapiens, UniProt P24723): remaining binding read 100%.
For WNK2 (Homo sapiens, UniProt Q9Y3S1): remaining binding read 100%.
For TGFBR2 (Homo sapiens, UniProt P37173): remaining binding read 99%.
For COQ8B (Homo sapiens, UniProt Q96D53): remaining binding read 100%.
PHKG2 (Homo sapiens, UniProt P15735) — remaining binding: 100%.
For MAP2K3 (Homo sapiens, UniProt P46734): remaining binding read 100%.
For EGFR (Homo sapiens, UniProt P00533): remaining binding read 100%.
The remaining binding was 88% (GRK4 (Homo sapiens, UniProt P32298)).
It gave 95% for remaining binding (MAP4K4 (Homo sapiens, UniProt O95819)).
The remaining binding was 100% (Tyrosine-protein kinase JAK1, JH1 (JAK1, Homo sapiens, UniProt P23458)).
Tyrosine-protein kinase ABL1, phosphorylated (ABL1, Homo sapiens, UniProt P00519, T315I) — remaining binding: 93%.
The remaining binding was 87% (GRK7 (Homo sapiens, UniProt Q8WTQ7)).
The remaining binding was 100% (MAP3K10 (Homo sapiens, UniProt Q02779)).
The remaining binding was 77% (Cyclin-dependent kinase 4, with cyclin D1 (CDK4, Homo sapiens, UniProt P11802)).
For MAP3K2 (Homo sapiens, UniProt Q9Y2U5): remaining binding read 82%.
For Tyrosine-protein kinase ABL1, phosphorylated (ABL1, Homo sapiens, UniProt P00519, F317L): remaining binding read 100%.
It gave 100% for remaining binding (PRKD1 (Homo sapiens, UniProt Q15139)).

Block 4
Change: T154E
Target: ABI1, truncated, D143A, DHFR fusion (Arabidopsis thaliana)
Method: DHFR PCA, deep sequencing
Matrix: yeast
Notes: methotrexate growth selection, single substitutions
Reference: wild-type fitted maximum
Reading: higher = stronger binding
Starting sequence: PYL1, truncated, DHFR fusion (Arabidopsis thaliana); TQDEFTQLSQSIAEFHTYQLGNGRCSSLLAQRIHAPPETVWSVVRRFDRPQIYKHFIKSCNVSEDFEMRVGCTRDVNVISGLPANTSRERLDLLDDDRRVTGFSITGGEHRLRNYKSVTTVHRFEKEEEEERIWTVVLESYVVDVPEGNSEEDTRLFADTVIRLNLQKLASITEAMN; partner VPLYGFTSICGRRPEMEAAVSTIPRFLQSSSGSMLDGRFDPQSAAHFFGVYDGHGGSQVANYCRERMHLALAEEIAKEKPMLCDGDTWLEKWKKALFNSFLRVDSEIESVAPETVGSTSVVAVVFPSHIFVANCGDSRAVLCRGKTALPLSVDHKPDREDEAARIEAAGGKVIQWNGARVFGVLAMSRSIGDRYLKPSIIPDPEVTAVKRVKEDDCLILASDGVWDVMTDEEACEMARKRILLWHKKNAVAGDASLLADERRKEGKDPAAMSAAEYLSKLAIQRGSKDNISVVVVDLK
together with: (+)-ABA 0.39 µM — “relative binding score”: -3.74%.
The “relative binding score” was -3% (together with: (+)-ABA 58 µM).
together with: (+)-ABA 4.8 µM — “relative binding score”: -11.9%.
together with: (+)-ABA 17 µM — “relative binding score”: -1.82%.
For together with: (+)-ABA 0.032 µM: “relative binding score” read -4.71%.
The “relative binding score” was 23.2% (together with: (+)-ABA 2500 µM).

Repeated from above (block 1):
With `Cc1ccc(Nc2nccc(N(C)c3ccc4c(C)n(C)nc4c3)n2)cc1S(N)(=O)=O` the remaining activity was 94.4%.
For `COc1ccc(CNC(=O)Nc2ncc([N+](=O)[O-])s2)cc1`, the remaining activity was 61.9%.
For `O=C(O)c1ccc2c3c1cccc3c(=O)n1c3ccccc3nc21`, the remaining activity was 101%.
